Results gathered from unrelated publications.
Each numbered part is a random draw from the data of one study; scales do not carry over between parts. “And” joins repeats or separate records; there may be more than shown.
Sequence of UniProt P10721 (whole entry, unmodified, looked up): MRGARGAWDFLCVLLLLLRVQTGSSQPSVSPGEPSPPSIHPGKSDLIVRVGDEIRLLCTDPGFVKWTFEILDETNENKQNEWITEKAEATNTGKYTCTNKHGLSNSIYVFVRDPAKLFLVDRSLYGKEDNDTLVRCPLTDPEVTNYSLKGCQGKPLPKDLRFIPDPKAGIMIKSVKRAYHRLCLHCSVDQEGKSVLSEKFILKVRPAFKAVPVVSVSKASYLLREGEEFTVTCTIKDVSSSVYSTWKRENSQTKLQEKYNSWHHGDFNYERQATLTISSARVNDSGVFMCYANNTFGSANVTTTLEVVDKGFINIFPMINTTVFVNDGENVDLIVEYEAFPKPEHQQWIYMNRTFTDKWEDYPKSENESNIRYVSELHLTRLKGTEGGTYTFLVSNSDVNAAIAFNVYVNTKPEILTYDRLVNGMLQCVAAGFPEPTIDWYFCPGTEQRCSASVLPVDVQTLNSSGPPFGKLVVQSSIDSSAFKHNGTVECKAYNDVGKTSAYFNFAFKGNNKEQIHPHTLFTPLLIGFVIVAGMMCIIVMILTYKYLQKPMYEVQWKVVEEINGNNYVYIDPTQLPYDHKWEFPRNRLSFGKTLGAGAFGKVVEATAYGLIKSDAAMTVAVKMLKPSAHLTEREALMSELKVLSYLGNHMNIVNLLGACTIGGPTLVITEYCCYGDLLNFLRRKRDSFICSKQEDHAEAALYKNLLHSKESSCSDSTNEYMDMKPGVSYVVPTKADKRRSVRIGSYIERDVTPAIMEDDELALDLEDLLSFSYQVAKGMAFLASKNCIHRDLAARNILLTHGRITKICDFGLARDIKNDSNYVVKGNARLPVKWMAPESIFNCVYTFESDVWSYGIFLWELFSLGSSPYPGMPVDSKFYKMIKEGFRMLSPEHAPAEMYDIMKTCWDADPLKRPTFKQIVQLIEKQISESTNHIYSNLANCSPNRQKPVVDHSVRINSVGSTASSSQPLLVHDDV
Sequence of UniProt Q9UKE5 (whole entry, looked up): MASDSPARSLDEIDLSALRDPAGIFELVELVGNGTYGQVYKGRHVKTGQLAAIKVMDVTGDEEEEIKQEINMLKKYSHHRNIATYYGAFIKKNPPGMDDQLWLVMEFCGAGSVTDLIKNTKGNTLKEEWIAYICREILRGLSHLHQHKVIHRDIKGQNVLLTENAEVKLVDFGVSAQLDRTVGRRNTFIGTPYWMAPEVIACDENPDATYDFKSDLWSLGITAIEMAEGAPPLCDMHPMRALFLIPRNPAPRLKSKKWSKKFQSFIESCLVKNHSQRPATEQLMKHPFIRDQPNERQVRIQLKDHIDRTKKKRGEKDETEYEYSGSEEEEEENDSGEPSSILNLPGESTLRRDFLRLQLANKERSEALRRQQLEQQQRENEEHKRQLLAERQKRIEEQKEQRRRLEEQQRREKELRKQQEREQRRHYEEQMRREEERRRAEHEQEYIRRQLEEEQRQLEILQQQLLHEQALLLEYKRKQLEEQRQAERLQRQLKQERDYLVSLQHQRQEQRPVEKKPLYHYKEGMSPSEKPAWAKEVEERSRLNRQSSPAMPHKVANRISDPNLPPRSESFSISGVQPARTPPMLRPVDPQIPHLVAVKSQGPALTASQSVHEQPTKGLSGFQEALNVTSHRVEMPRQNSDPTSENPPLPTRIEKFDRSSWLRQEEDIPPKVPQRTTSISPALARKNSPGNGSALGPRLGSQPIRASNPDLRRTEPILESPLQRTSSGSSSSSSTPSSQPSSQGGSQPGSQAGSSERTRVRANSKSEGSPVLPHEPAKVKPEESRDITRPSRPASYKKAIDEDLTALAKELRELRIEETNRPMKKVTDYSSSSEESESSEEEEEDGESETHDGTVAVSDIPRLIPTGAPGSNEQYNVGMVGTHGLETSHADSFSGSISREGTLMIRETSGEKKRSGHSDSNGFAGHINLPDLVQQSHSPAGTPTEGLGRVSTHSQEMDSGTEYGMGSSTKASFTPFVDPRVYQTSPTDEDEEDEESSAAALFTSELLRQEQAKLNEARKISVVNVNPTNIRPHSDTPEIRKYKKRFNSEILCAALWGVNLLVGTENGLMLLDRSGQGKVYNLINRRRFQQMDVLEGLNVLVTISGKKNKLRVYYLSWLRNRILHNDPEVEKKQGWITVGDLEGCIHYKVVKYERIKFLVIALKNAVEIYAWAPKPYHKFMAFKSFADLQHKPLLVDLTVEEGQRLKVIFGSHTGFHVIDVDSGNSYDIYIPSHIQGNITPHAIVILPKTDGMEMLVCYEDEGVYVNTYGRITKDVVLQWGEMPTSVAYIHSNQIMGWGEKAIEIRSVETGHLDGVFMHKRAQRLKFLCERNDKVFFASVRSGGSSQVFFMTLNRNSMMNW
Sequence of UniProt Q16584 (whole entry, looked up): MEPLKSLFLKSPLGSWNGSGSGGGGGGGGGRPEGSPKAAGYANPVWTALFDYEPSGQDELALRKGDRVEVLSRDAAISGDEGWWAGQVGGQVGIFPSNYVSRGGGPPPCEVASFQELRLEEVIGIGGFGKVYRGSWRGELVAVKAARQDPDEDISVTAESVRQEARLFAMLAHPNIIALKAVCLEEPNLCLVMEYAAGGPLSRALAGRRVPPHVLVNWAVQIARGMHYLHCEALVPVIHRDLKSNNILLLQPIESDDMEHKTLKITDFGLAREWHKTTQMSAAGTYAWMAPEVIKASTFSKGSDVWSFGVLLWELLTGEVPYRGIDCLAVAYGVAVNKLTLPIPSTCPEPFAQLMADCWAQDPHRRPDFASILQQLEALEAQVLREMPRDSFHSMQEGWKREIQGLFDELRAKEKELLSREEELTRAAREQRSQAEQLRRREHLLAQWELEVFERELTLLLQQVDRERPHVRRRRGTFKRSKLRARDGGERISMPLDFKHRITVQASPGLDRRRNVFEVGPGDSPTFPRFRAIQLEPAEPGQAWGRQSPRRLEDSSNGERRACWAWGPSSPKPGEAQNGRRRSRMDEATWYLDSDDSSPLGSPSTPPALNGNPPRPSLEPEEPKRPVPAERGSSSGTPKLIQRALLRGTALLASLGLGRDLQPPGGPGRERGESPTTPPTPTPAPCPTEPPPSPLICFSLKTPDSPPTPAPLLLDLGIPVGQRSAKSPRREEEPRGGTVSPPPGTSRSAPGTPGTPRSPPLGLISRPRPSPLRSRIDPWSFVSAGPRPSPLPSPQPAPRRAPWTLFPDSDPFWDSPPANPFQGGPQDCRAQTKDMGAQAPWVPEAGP
Sequence of UniProt Q9C098 (whole entry, looked up): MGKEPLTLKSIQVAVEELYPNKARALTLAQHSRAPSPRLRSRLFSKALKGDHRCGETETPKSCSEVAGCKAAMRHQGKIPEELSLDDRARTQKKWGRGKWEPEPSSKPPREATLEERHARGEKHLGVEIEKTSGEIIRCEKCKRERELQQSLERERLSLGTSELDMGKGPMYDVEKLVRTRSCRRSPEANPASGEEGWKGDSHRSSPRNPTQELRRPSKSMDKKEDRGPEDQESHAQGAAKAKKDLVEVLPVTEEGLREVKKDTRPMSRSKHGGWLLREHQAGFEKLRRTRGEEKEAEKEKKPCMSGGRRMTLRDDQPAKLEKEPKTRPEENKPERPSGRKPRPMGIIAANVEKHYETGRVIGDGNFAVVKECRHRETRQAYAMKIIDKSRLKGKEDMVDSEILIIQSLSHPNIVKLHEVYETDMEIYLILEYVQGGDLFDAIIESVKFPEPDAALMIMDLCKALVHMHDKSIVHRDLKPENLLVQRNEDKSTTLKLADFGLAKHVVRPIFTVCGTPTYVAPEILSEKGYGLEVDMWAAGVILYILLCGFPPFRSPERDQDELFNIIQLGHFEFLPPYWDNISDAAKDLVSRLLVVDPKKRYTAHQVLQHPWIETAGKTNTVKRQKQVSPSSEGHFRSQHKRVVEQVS

Study 1
SMILES: O=C1CCC(N2Cc3cc(C4CCN(Cc5ccccc5)CC4)ccc3C2=O)C(=O)N1 (centres unmarked)
Sample: plasma
Quantity: Tmax
Sprague Dawley rat, male; intravenous, 1.0 mg/kg: 15 min
ICR mouse, male; intravenous, 1.0 mg/kg: 4.8 min
Sprague Dawley rat, male; oral, 3.0 mg/kg: 120 min

Study 2
SMILES: Cc1nc(C2CCN(C(=O)c3ccc(OC(F)(F)F)cc3N)CC2)c2ncc(N3CCN(C)CC3)cc2n1
Effect on: cell-free assay
Technique: competition with immobilised ligand
Tested at: 1 µM
Quantity: remaining binding
Homeodomain-interacting protein kinase 2 (HIPK2, Homo sapiens, UniProt Q9H2X6): 93%
Dual specificity protein kinase CLK1 (CLK1, Homo sapiens, UniProt P49759): 100%
Serine/threonine-protein kinase NLK (NLK, Homo sapiens, UniProt Q9UBE8): 100%
Tyrosine-protein kinase ABL1, phosphorylated (ABL1, Homo sapiens, UniProt P00519, M351T): 100%
TRAF2 and NCK-interacting protein kinase (TNIK, Homo sapiens, UniProt Q9UKE5): 100%
Serine/threonine-protein kinase DCLK3 (DCLK3, Homo sapiens, UniProt Q9C098): 98%
Epidermal growth factor receptor (EGFR, Homo sapiens, UniProt P00533, del752-759): 49%
Mitogen-activated protein kinase kinase kinase 11 (MAP3K11, Homo sapiens, UniProt Q16584): 100%
Mast/stem cell growth factor receptor Kit (KIT, Homo sapiens, UniProt P10721, V559D/V654A): 100%
Mast/stem cell growth factor receptor Kit (KIT, Homo sapiens, UniProt P10721, D816V): 100%
Tyrosine-protein kinase ABL1, phosphorylated (ABL1, Homo sapiens, UniProt P00519, Q252H): 100%

Study 3
Target: Tyrosine-protein kinase Fer (FER, Homo sapiens, UniProt P16591)
Sequence of UniProt P16591 (whole entry, looked up): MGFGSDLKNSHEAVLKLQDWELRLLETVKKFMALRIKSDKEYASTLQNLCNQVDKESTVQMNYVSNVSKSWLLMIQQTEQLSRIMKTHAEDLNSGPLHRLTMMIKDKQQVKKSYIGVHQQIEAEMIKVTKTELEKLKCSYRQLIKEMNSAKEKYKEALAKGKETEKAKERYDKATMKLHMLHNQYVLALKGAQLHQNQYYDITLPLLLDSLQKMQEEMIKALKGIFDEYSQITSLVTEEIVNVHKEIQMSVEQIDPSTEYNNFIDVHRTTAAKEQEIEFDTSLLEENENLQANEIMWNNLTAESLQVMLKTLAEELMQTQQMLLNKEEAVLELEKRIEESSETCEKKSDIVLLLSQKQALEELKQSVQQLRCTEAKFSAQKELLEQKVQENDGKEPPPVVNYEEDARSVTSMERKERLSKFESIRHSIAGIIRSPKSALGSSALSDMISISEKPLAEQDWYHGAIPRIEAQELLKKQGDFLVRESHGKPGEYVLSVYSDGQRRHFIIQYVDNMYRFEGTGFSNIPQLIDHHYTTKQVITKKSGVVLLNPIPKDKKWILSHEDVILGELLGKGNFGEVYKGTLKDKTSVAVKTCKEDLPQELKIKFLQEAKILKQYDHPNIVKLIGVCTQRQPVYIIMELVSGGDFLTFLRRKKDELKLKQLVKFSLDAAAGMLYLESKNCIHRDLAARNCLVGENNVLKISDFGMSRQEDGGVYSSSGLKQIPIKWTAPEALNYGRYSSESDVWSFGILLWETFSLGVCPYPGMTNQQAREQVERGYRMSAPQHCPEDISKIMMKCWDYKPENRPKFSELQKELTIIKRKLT
Effect on: enzyme activity
Mode: inhibitor
Tested at: 0.5 µM
Baseline: control
Quantity: remaining activity
N#Cc1c(NC(=O)c2cccc3ccccc23)sc2c1CCCC2: 99.7%
O=C1c2ccccc2-c2n[nH]c3cccc1c23: 69.4%
Nc1cccc(-c2cc3c(Oc4cccc(O)c4)ncnc3[nH]2)c1: 44%
O=C1C(Cl)=C(N2C(=O)CCC2=O)C(=O)c2ccccc21: 103%
Cc1cc2ncc(-c3ccccc3)nc2cc1C: 91%
Ic1cccc(CSc2nnc(-c3ccncc3)o2)c1: 101%

Study 4
Compound: COc1ccc(-c2c(Nc3ccccn3)[nH]c3c(C4=CCCCC4)c(-c4ccccc4)nn3c2=O)cc1
Technique: LC-MS/MS
Species: human
Sample: plasma
Route: oral
Quantity: concentration
200 mg twice daily, 6 h: 9.69 µg/mL
50 mg once daily, 1 h: 1.17 µg/mL
item: methionine; 50 mg once daily: 35.5 µg/mL and 95.4 µg/mL and 89.2 µg/mL
item: S-adenosylmethionine; 100 mg once daily: 0.00998 µg/mL and 0.0187 µg/mL and 0.0124 µg/mL and 0.0137 µg/mL and 0.0296 µg/mL
item: methionine; 150 mg once daily: 196 µg/mL and 85.3 µg/mL and 105 µg/mL and 224 µg/mL
item: methionine; 400 mg once daily: 45.5 µg/mL and 60.8 µg/mL and 127 µg/mL and 122 µg/mL and 72.5 µg/mL and 106 µg/mL

Repeated from above (study 3):
O=C1C(Cl)=C(N2C(=O)CCC2=O)C(=O)c2ccccc21: 103%
Cc1cc2ncc(-c3ccccc3)nc2cc1C: 91%
